Results collected from several papers.
A part holds a random share of what one study measured.

Block 1 — method: protein binding microarray; molecule type: double-stranded DNA, one strand shown; matrix: in vitro; concentration: not given; reference: not given; reading: higher = stronger binding
Target: Histone acetyltransferase KAT6A, winged helix 2, GST fusion (KAT6A, Homo sapiens, UniProt Q92794, residues 85-181)
Setting: 8-mer, flanks averaged, mean of 2 arrays, mostly near background
Residues (chain): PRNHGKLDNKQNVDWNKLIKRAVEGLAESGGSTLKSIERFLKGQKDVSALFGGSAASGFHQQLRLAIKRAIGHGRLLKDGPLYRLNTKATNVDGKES
| Strand | E-score |
| --- | --- |
| CAGATGAC | -0.172 |
| GGATTGTA | -0.0303 |
| ATGCTATG | 0.0757 |
| CTCCCGGA | 0.215 |
| CCCAGTAA | 0.029 |
| ATACCGGA | -0.0154 |
| TACGCGTA | -0.0492 |
| AGGGAGCC | -0.0283 |
| CCGTCAGG | 0.137 |
| ATTATGAC | -0.168 |
| ATTCTTAG | -0.159 |
| GTACACGA | 0.0176 |
| CCGAATGA | 0.186 |
| AGTCAAAG | -0.0785 |
| AAGGCCAG | 0.0907 |
| CCGCTGAG | 0.0233 |
| AAGCGCAC | -0.00041 |
| GGTTACCA | 0.0206 |
| CCGAAAGA | 0.0133 |
| ATGGGGGA | -0.195 |
| TCCCCGCA | 0.114 |
| ACGTCATG | -0.11 |
| AGGCGAGC | 0.0779 |
| CGGCCAGC | 0.149 |

Block 2 — method: protein-binding microarray; molecule type: double-stranded DNA, one strand shown; matrix: in vitro; concentration: 250 nM; setting: 60-bp whole probe; together with: salmon DNA 0.4 mg/ml; reference: random background probes; reading: higher = stronger binding; constant ends, left off below: GCCTAGCAC … GTCTTGATTCGCTTGACGCTGCTG
Target: Interferon regulatory factor 5, full length, phosphomimetic (IRF5, Homo sapiens, UniProt Q13568-2, residues 1-514, K96S/S451D/S453D/S456D/S462D)
| Strand | log fluorescence [z-score] |
| --- | --- |
| TCATTTCTGAATGTCTTACTGTGCTAG | 1.28 |
| GACGGTATCGGGTTTCGGGGCGTGCTA | 3.9 |
| TTAGGTATCCGACTGGGTTAGTGCTAG | -0.143 |
| TACTGGACTGGGGTTTCCCGGTGCTAG | -0.327 |
| TTAGGTTTCGGGACTGGGGTAGTGCTA | 5.96 |
| TTAGGTATCGGTTACGGTTAGTGCTAG | 8.45 |
| TTAGGACTGGACACTGGGTTGGTGCTA | -0.635 |
| GACGGGTTCGGGTTTCGGGACGTGCTA | 1.44 |
| GACGGTCTCATTCTCCTGACGTGCTAG | -0.136 |
| TTAGTACTGCTTTTCCTTTAGTGCTAG | 0.737 |
| TTAGATTTCAGACCGGATTAGTGCTAG | 0.161 |
| TTAGGTTCCGGTTTCGGTCAGTGCTAG | 9.09 |
| GACGAACTGAGTCTCGCGACGTGCTAG | -0.391 |
| GACGGCATCGACTATCGGGACGTGCTA | 1.02 |
| TCAGCTCCCTTTCTCTCTGTGTGCTAG | 0.732 |
| TTAGAACTGAGGACTGGATTAGTGCTA | -0.00429 |
| TTAGGTTTCTGTATCGGTTAGTGCTAG | 8.17 |
| CTGCACTCCAGTCTGGGAGAGTGCTAG | -0.312 |
| GACGGACTGCTTATCCTGACGTGCTAG | -0.502 |
| TTAGGTCTCCTTATCCTCTAGTGCTAG | -0.0638 |
| GACGGTTTTCTTTCCCTGACGTGCTAG | 1.04 |
| TTAGATTTCGGTATCGGTTAGTGCTAG | 10.3 |
| TCACAGCTGTTTTTCTCACTGTGCTAG | 0.677 |
| TCCAATTCTCTTTTCACTTTGTGCTAG | 1.86 |
| TTAGGTATCCTTCTCCTTGAGTGCTAG | 0.456 |

Block 3 — method: protein-binding microarray; molecule type: double-stranded DNA, one strand shown; matrix: in vitro; concentration: 0.8 µM; setting: whole 60-bp probe, no competitor; reading: higher = stronger binding; constant ends, left off below: … GTCTTGATTCGCTTGACGCTGCTG
Target: Centromere-binding protein 1, full length, N-terminal tag (CBF1, Saccharomyces cerevisiae, UniProt P17106, residues 1-351)
UniProt P17106, sequence (whole entry, looked up): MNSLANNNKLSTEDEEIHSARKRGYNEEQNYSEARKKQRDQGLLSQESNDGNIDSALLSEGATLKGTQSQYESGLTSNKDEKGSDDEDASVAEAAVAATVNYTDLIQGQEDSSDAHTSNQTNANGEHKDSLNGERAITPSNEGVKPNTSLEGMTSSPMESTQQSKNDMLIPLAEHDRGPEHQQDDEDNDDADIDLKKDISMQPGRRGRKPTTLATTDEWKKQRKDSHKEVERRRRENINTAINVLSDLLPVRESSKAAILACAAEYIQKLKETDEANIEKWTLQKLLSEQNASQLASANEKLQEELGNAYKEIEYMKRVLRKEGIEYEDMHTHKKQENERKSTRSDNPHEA
| Strand | fluorescence intensity [a.u.] |
| --- | --- |
| GAAAGAAAAGAATGCACCACCATTATGCCTAAGTAG | 503 |
| GAATACTACAGCCATCATCACAAACACTGCTAATAG | 574 |
| GAATCAAGTTTGCCTCTGATGCTGTGCGAGCTCTAG | 500 |
| CTACAATAACATATGCACATGGCAACGGGTCTTTTC | 679 |
| TGTACGAAGCTATATCTGGTGGCTATAGTAGTTAGG | 499 |
| GAACTGCTTTTGTGTCACGATCATCATCACTATTAG | 812 |
| TGTACGAAGCTATATAGTCACGTTATAGTAGTTAGG | 2640 |
| GAATTCTTTTACAGTTATGTGATCATCAAGAACTAG | 594 |
| GAAGGGGTGAATTGTGGTCACGTGCTTCTATAATAG | 33800 |
| CCTAACTACTATATCGAGGTCACATAGCTTCGTACA | 598 |
| GAAAGCCTTTGAATGATCGTGCTGACTGTAATTTAG | 550 |
| GAATGTAACCTTGATCACATGCGACGGGAGTTCTAG | 2510 |
| CTAATGTAGTATACACACGTGGACGACCATTAATTC | 2630 |
| GAAAACAGAGACTGCCACGTTATCAGCATCGCGTAG | 576 |
| GAATTTCCGTACTGTGACACTTGACCATCATAATAG | 679 |
| GAAACAGGTGGAAAACACGTGGTTGGTACGGGATAG | 4310 |
| GAATCGCTTCCACGTCATGCCCACGTTTCGTTTTAG | 755 |
| CTACTAAAGAAGAATCATATGAATAAAACTAAATTC | 515 |
| GAATCTGCCTATGCCTTCGTGGGGCATCTCTTATAG | 496 |
| CTAAGTGTAAGACACCACCTCTTAATTACTGGTTTC | 470 |
| CTATACCACCACCTCCCCGTGATTTACATTCAGTTC | 1340 |
| GAAGATGTTATAAATCACGGAATTAAGAGAAGGTAG | 562 |
| CTAAGCCAACGAGATCACGTGCACAGAAATATCTTC | 20800 |

Block 4 — method: RNA Bind-n-Seq; molecule type: RNA; matrix: in vitro; concentration: not given; reference: input RNA pool; reading: higher = stronger binding
Target: RING finger protein unkempt homolog, zinc fingers 1-6, GST-SBP tag (UNK, Homo sapiens, UniProt Q9C0B0, residues 30-357)
UniProt Q9C0B0, sequence (30-357, looked up): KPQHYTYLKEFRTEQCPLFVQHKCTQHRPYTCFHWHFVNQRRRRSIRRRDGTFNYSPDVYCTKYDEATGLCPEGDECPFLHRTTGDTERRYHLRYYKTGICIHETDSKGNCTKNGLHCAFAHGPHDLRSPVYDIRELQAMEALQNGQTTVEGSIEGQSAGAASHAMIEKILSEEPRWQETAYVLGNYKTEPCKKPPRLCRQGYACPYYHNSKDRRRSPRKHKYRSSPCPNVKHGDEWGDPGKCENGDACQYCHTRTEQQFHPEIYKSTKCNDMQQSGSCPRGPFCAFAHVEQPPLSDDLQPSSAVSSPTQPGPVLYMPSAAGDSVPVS
Setting: RNA with constant flanks, human and mouse sites, ends assumed
Constant ends, left off below: GGGAGUUCUACAGUCCGACGAUC … CAACAGAGGAUUGAGCAUCA
| Strand | bound/input enrichment [ratio] |
| --- | --- |
| ACAAUACUUGAACAUUUUAAUCUUUUGGAAUAUUGUCUUUCUUUGUUAUAACUAUUCAUUUUUAGCUUUUGUCUCCAGUGCAUGAUCUCAUAUUUUUGCUUUUAUUUUUAGUAUAAGAAC | 5.64 |
| CCUAUUCGGAUUAUUGAUUUAAAUUUAUGUCAGCAAGUUGAUGCUGGGUUGACAUUCAACAAAAAGGAGUUUGAAAACAGCUAUAUCUUUGAUAUCAACACCAUCGACCGGAUUUUCUAC | 0.24 |
| UUUUCUUUUUCUUUUUUUAAAAGAAUGAAUGUAAGCCUUUUGUGUAAUAGGGGCAUUUGUGAUUUAAAAUUGGUGAUGUUUUAAACAGCUGCCUACAAAAGUAUUUCUGUUAAGCUGAUG | 0.287 |
| GUUUAUUCUCAGAGCACUGCUCUCACUCAUAAGCAGUCUUAUUAUUCCAUUGCCAAAUGUGUAGCUGCCCUUACUCGAGCUUGCCCUAAAGAGGGACCCGCCGUAGUAGGUCAGUUUAUU | 0.185 |
| ACACCUCUGUUUCUUGCUGCCCGGGAGGGGAGCUAUGAAGCAGCCAAGAUCCUGUUAGACCAUUUUGCCAAUCGAGACAUCACAGACCAUAUGGAUCGUCUUCCCCGGGAUGUGGCUCGG | 0.247 |
| CUGAAGUGUUCCUGUUUGUCUUAUCCUGGCCCUGGCCAGACGUUUUCUUUGAUUUUUAAUUUUUUUUUUUUAUUAAAAGAUACCAGUAUGAGAUGAAAACUUCCAAUAAUUUGUCCUAUA | 0.577 |
| AGGCAUUAUCUCAUUCAUACCGGUCAAAAGCCAUUUGAAUGUGAUGUGUGCCAUAAAAACUUUAGACAACUCGUUCAUCUGGAGAGGCAUCAGUUAACUCACAAUCUGCCUUUCAGUUGU | 0.142 |
| AUGUCAGGCACCGUGUUGGCAUCACACAACAAACUGUGGAUCAGUUUUUUUUUUUUUUUUUUUUUUUUGGAGUUGAAAGAUGUGAGACAGUAUUCAGAAUAAUGAAGAUAAUAAUGAUGA | 1.35 |
| UACACAUCAUUUUGGAAUGACUGUAUAUCAUCUGGAUUACGUGGCUGUAUGUUAAUUGAAUUAGCUUUGAGAGGAAGGUUACAGUUAGAGGCUUGUGGAAUGAGAAGAAAAAGUCUUUUA | 0.423 |
| AAAUAUUUUGAGAAUUCAGCUGAAACAGACAUUCCAAAAAUCACCAAAAAACUAUCUCAACUAGGAGAAUCAGAGCUUUUUGCAAGUUCUGGAUCAUUUUCAUUACAGAGCUCUAUACCA | 0.63 |
| AUAUUGAAACAGUCUGCAGAUUUUUUAUCAAUAAACAAAUUGCUAAAGUACUCAUGGUUUUUCUUUGAAAUAAUUGCAAAGUCAAUGGCCACAUACUUGUUGGAAGAGAAUAAGAUUAAG | 0.251 |

Repeated from above (block 4):
| Strand | bound/input enrichment [ratio] |
| --- | --- |
| ACAAUACUUGAACAUUUUAAUCUUUUGGAAUAUUGUCUUUCUUUGUUAUAACUAUUCAUUUUUAGCUUUUGUCUCCAGUGCAUGAUCUCAUAUUUUUGCUUUUAUUUUUAGUAUAAGAAC | 5.64 |
| CCUAUUCGGAUUAUUGAUUUAAAUUUAUGUCAGCAAGUUGAUGCUGGGUUGACAUUCAACAAAAAGGAGUUUGAAAACAGCUAUAUCUUUGAUAUCAACACCAUCGACCGGAUUUUCUAC | 0.24 |
| UUUUCUUUUUCUUUUUUUAAAAGAAUGAAUGUAAGCCUUUUGUGUAAUAGGGGCAUUUGUGAUUUAAAAUUGGUGAUGUUUUAAACAGCUGCCUACAAAAGUAUUUCUGUUAAGCUGAUG | 0.287 |
| GUUUAUUCUCAGAGCACUGCUCUCACUCAUAAGCAGUCUUAUUAUUCCAUUGCCAAAUGUGUAGCUGCCCUUACUCGAGCUUGCCCUAAAGAGGGACCCGCCGUAGUAGGUCAGUUUAUU | 0.185 |
| ACACCUCUGUUUCUUGCUGCCCGGGAGGGGAGCUAUGAAGCAGCCAAGAUCCUGUUAGACCAUUUUGCCAAUCGAGACAUCACAGACCAUAUGGAUCGUCUUCCCCGGGAUGUGGCUCGG | 0.247 |
| CUGAAGUGUUCCUGUUUGUCUUAUCCUGGCCCUGGCCAGACGUUUUCUUUGAUUUUUAAUUUUUUUUUUUUAUUAAAAGAUACCAGUAUGAGAUGAAAACUUCCAAUAAUUUGUCCUAUA | 0.577 |
| AGGCAUUAUCUCAUUCAUACCGGUCAAAAGCCAUUUGAAUGUGAUGUGUGCCAUAAAAACUUUAGACAACUCGUUCAUCUGGAGAGGCAUCAGUUAACUCACAAUCUGCCUUUCAGUUGU | 0.142 |
| AUGUCAGGCACCGUGUUGGCAUCACACAACAAACUGUGGAUCAGUUUUUUUUUUUUUUUUUUUUUUUUGGAGUUGAAAGAUGUGAGACAGUAUUCAGAAUAAUGAAGAUAAUAAUGAUGA | 1.35 |
| UACACAUCAUUUUGGAAUGACUGUAUAUCAUCUGGAUUACGUGGCUGUAUGUUAAUUGAAUUAGCUUUGAGAGGAAGGUUACAGUUAGAGGCUUGUGGAAUGAGAAGAAAAAGUCUUUUA | 0.423 |
| AAAUAUUUUGAGAAUUCAGCUGAAACAGACAUUCCAAAAAUCACCAAAAAACUAUCUCAACUAGGAGAAUCAGAGCUUUUUGCAAGUUCUGGAUCAUUUUCAUUACAGAGCUCUAUACCA | 0.63 |
| AUAUUGAAACAGUCUGCAGAUUUUUUAUCAAUAAACAAAUUGCUAAAGUACUCAUGGUUUUUCUUUGAAAUAAUUGCAAAGUCAAUGGCCACAUACUUGUUGGAAGAGAAUAAGAUUAAG | 0.251 |
